Measurements of several laboratories.
Each numbered part is a random draw from the data of one study; scales do not carry over between parts. Positions count from the first letter of the parent shown.

Sample 1
Target: Sal-like protein 4, full length isoform A (SALL4, Homo sapiens, UniProt Q9UJQ4, residues 1-1053)
Chain of UniProt Q9UJQ4 (whole entry, looked up): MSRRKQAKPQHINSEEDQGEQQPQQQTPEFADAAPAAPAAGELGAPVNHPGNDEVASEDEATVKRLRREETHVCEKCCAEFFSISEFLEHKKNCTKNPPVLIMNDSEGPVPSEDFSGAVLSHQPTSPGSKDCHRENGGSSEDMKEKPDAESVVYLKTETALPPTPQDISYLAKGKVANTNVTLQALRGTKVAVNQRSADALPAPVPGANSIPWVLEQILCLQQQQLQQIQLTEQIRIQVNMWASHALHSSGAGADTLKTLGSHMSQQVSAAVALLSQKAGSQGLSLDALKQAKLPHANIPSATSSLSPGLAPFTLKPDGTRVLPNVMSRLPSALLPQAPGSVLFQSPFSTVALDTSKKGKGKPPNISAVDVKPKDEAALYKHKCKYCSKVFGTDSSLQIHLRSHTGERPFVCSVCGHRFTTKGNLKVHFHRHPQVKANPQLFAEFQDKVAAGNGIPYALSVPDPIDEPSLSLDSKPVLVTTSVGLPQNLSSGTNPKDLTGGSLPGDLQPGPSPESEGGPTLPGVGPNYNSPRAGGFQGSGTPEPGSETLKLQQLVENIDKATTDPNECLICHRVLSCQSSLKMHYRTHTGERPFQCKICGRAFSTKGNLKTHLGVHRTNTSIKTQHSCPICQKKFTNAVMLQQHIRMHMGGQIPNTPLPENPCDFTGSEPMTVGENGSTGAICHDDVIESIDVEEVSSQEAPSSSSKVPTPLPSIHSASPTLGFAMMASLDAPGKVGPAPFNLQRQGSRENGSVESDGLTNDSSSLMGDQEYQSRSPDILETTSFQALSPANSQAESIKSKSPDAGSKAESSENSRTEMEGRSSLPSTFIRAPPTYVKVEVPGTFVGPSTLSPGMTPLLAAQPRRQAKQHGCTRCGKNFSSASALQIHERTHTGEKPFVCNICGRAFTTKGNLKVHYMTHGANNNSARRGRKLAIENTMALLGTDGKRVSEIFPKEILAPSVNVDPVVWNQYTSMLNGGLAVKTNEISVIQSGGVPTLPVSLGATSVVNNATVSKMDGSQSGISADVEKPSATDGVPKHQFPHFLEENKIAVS
Method: universal PBM
Form: double-stranded DNA, one strand shown
Matrix: in vitro
Tested at: 600 nM
Notes: 8-mer, flanks averaged, mean of replicates
Direction: higher = stronger binding
Endpoint: E-score
Sequence = TAGGAGCA; value = 0.0391
Sequence = TCCCGGGA; value = -0.31
Sequence = GCTAGCCA; value = -0.345
Sequence = CACGGTCC; value = -0.341
Sequence = ACTGCTGC; value = -0.177
Sequence = CGGAAAGA; value = -0.118
Sequence = CGGGACGC; value = -0.28
Sequence = AAATGATT; value = 0.332
Sequence = AGTCACAA; value = 0.0667
Sequence = ACGTGACA; value = -0.0125
Sequence = CCAATGCA; value = -0.0562
Sequence = ACGTAAAT; value = 0.153
Sequence = AACTGTTC; value = -0.0166
Sequence = GTGCTCTA; value = -0.204
Sequence = AGAACAAA; value = 0.356
Sequence = CTGTGGGA; value = -0.276
Sequence = AAGGGACC; value = -0.196
Sequence = GAGATGCA; value = -0.0172
Sequence = CCTAAAGA; value = -0.00304

Sample 2
Target: ABI1, truncated, D143A, DHFR fusion (Arabidopsis thaliana)
Method: DHFR PCA, deep sequencing
Matrix: yeast
Notes: methotrexate growth selection, single substitutions
With: (+)-ABA 17 µM
Relative to: wild-type fitted maximum
Direction: higher = stronger binding
Endpoint: relative binding score
Starting sequence: PYL1, truncated, DHFR fusion (Arabidopsis thaliana); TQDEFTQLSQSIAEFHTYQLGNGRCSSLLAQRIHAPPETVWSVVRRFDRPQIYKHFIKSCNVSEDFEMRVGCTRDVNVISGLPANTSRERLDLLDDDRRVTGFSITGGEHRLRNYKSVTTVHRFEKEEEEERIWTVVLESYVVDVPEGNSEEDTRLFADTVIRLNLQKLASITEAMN; partner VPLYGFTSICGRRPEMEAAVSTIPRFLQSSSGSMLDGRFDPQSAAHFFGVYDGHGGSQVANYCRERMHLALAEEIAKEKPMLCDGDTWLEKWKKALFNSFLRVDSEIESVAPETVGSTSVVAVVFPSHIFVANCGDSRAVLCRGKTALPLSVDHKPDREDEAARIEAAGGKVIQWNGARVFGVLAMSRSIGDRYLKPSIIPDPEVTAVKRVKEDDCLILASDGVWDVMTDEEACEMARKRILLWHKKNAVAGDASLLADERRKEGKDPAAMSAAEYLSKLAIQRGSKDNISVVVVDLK
Substitution = R74L; value = -11.1%
Substitution = L138I; value = 63.3%
Substitution = L20H; value = 90.3%
Substitution = T120W; value = -2.29%
Substitution = E109F; value = 27.8%
Substitution = N77K; value = 93.5%
Substitution = Q19D; value = 89.9%
Substitution = D65H; value = 82.1%
Substitution = E128H; value = 89.6%
Substitution = P37S; value = 49.3%
Substitution = P50I; value = -2.82%
Substitution = V44E; value = -3.76%
Substitution = E125D; value = 85.2%
Substitution = Q51C; value = 41.5%
Substitution = K58I; value = 24.6%
Substitution = N114L; value = -6.16%
Substitution = S117D; value = -5.64%
Substitution = F56W; value = 70.5%
Substitution = I12V; value = 68.1%
Substitution = D92L; value = 5.97%
Substitution = D95E; value = 57%

Sample 3
Target: CCNE2, cyclin fold, Cln2 fusion (human)
Method: yeast growth competition, sequencing
Matrix: yeast
Notes: weak parent motif
Relative to: not given
Direction: higher = stronger binding
Endpoint: normalised enrichment score
Starting sequence: ASZ1 docking peptide (human); GFGFLLFICKLTF
Substitution = F2A; value = 0.629
Substitution = C9A; value = 0.986
Substitution = L6A; value = 0.982
Substitution = F13A; value = 0.59
Substitution = F7A; value = 0.442
Substitution = G1A; value = 0.906
Substitution = I8A; value = 0.688

Sample 4
Target: Ras GTPase-activating protein-binding protein 1, full length (G3BP1, Homo sapiens, UniProt Q13283)
Chain of UniProt Q13283 (whole entry, looked up): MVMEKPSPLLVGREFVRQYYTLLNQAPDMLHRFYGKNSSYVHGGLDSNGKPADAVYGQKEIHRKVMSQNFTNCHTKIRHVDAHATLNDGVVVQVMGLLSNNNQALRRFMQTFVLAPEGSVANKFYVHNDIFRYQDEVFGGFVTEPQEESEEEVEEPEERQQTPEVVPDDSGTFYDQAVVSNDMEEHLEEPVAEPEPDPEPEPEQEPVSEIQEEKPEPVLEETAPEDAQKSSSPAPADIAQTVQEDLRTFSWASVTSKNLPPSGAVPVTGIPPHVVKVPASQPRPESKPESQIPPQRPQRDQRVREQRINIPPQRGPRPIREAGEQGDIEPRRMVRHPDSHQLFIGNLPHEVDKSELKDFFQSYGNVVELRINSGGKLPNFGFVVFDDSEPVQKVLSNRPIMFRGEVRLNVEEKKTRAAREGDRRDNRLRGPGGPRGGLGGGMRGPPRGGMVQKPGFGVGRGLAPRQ
Method: RNA Bind-n-Seq
Form: RNA
Matrix: in vitro
Tested at: 200 nM
Notes: whole 134-nt RNA, ends assumed
With: 150 mM LiCl
Relative to: input library
Direction: higher = stronger binding
Endpoint: log2 enrichment
Each molecule: 7-deaza-guanosine replaces G
All sequences stand within: GGGAGUUCUACAGUCCGACGAUC … UGGAAUUCUCGGGUGUCAAGG
Sequence = GCAGGAAGUAAAAACAAAUGGAAAUGCUUCGGAUAGUGGCAGGGGUGGGGGUUGCUAAGGAAAGGGUGGAAUGGGAGUGGGUAAAGAGUU; value = 0.112
Sequence = CACAGACAACACGCACCCCCACAGACACAGAGGGAAGGGGUUGGGAUGGGGACAGGGUGCACAGCAGGGCGGGGUAGGACCCCAGCCCCU; value = -0.0764
Sequence = CAAGUCCUGUGCUACACAUCGUAUGUACCGAAUCGGGGUUUGGGGUUUGGUUUGGGAAAGUAUUAUGUUACGCCGUUCGGAUCUGCACUU; value = -0.871
Sequence = CAAGUCCUGUGCUACACAUCGUAUGUACCGAAUCGGGGUGGGGAGGGGAAAGGGGAAAGUAUUAUGUUACGCCGUUCGGAUCUGCACUUC; value = -0.225
Sequence = AGUCCUGUGCUACACAUCGUAUGUACCGAAUCAAACCCAAAUUUAAAUUUUUUUAAAAAAGUAUUAUGUUACGCCGUUCGGAUCUGCACU; value = -0.635
Sequence = UCCUCAAGUCCUGUGCUACACAUCGUAUGUACCGAAUCGGAGGGAGGAGGGGAAAGUAUUAUGUUACGCCGUUCGGAUCUGCACUUCCAG; value = 0.415
Sequence = ACCAUGCAGGUGGGCAUCUUUGGGAAGUGGGGCAAGGGGGGGAUAGGGAGGGGGGUAACACUUUGGGAACAGGUGGUCCCAGGUGGUUUC; value = 0.436
Sequence = UCCUGUGCUACACAUCGUAUGUACCGAAUCGGGCCCCCGGGCCCCCGGGGCCCCCGGGGAAAGUAUUAUGUUACGCCGUUCGGAUCUGCA; value = -1.48
Sequence = AGUCCUGUGCUACACAUCGUAUGUACCGAAUCGGGUUUUGGUUUUGGGGUUUUGGGGAAAGUAUUAUGUUACGCCGUUCGGAUCUGCACU; value = 0.0653
Sequence = ACCAUGCAGGGGGGCAUCUUUGGGAAGUGGGGCAAGGGGGGGAUAGGGAGGGGGGUAACACUUUGGGAACAGGUGGUCCCAGGUCGUUUC; value = -0.186
Sequence = UCCUGUGCUACACAUCGUAUGUACCGAAUCGGAAAAAAAGGGAAAAAAAGGAAAAAAAGGAAAGUAUUAUGUUACGCCGUUCGGAUCUGC; value = -0.4

Sample 5
Target: RING finger protein unkempt homolog, zinc fingers 1-6, GST-SBP tag (UNK, Homo sapiens, UniProt Q9C0B0, residues 30-357)
Method: RNA Bind-n-Seq
Form: RNA
Matrix: in vitro
Tested at: not given
Notes: RNA with constant flanks, ends assumed
Relative to: input RNA pool
Direction: higher = stronger binding
Endpoint: bound/input enrichment
All sequences stand within: GGGAGUUCUACAGUCCGACGAUC … CAACAGAGGAUUGAGCAUCA
Target sequence (chain): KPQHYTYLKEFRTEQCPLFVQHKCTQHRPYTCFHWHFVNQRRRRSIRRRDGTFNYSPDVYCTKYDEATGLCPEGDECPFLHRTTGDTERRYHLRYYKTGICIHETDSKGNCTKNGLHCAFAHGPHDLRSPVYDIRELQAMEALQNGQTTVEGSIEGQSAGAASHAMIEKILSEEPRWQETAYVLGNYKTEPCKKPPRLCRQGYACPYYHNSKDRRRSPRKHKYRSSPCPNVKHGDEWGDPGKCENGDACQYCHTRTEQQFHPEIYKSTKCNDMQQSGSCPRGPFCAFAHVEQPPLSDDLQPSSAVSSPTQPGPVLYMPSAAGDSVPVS
Sequence = UUCUAUCGCGCCCUCUUGGCUGCUAGUUGUCGCGCUCUCCAUCUCACCAUGCUGUCUCCCGACUUUCCCGACGAUGUGCGGCGGAUGAACAAGAGGCAGCUGUACUACCAAGUCCUAAAU; value = 0.0875 ratio
Sequence = UGUAUACUGUUUUACCCAAACCCAGCAAAAAUGCAUGUGUCUGUCCACCAAAGGACAUGCACCCGAAUAUUUAUAGCCUAAAACUGCACAAAACAGAACUAUCUUAAGGCACAUGUGCAA; value = 0.309 ratio
Sequence = CCUUAAUUAGCAGGUACUGUGUAUUUCAUCAGGAAGUCUUUGUAGUUCUAGAUACUCAGCCCGUAUUUUGGAAUUUGUAUAAUGAGAAUGUUUAGAAGCCAUCUAUAUGGCUUUUUUAAA; value = 2.07 ratio
Sequence = ACUUUUGAUUUCUCAGAAGAGGAGGAUGAUGAUGCUGCUGCUGCUGAUGACAGUAAUGAUUCCGAAGAACUGAAAGUUAAAGCAUCUCCCAUAACAAAUGAUGGGGAAGAUGAAUUUGUU; value = 0.346 ratio
Sequence = UCACCCCAGAGCAUUUUAGAUGAUGUUGCCAUGGUACUUGAUGAAGAAGCAGAAGUUUUUACCGUCAAAAUGUGGAGAUUAUUGAUAUAUGAAACAGAAGCCAAGAAAAUUGGUCUUGUG; value = 0.355 ratio
Sequence = AGCAUGUUUAUAAUGUGCGCAGGACAAGCUUGAGAAUGGUCAUUGUGGUUAAUGUGCUGGUCCGUUGACGUUAUGACUACUUUAAGGAUUGUGACACACUCCUACUGAAAAACCUCAGUG; value = 0.11 ratio
Sequence = UUCAACAGAAGAAAAGUAAUGGACUCCGAUGAAGACGACGCCGAUUACUAAGAGGACGCACUCCGACAGACUUCCGGAGCAGUGUCUAGGACAGUCACCACCUUGUAAAUGUUUACUUUG; value = 0.11 ratio
Sequence = AACCCAUGGCUGCUUUGUGUCACCUCAGUGACUUACAGUCCCCCUUGGCAUUUAGUUGGUACCCGAGCCAGUCAUCCUUAACAAAUCUUUUCACAUUUUAUUUCUUUCACAUGUAGUCAU; value = 8.8 ratio
Sequence = GAGGAGGACUCUGACGACGACGAAGCGCUCAGCCCACCAAAACGAGGAAGACCCCAAGUCCGAUUGCCAAUUAAAACAAAAGGGAGAUUUGGCCCUUCUUUCCCAAGUCGCAGCCAACGA; value = 0.0804 ratio
Sequence = AUGUUAAGCCAUUCUUGAUUGGACCUCAUAGCUUAUUUUAGUUAAUCUUUUUUUUGUCUUUCCGCCUUACCACCUUUUAAAAAAUUUGUUAUUCUCCAGAAACAGUAAAUAGGUGAGUAG; value = 119 ratio
Sequence = UUAAUGCCAAUUGUAUAUACACCGACGGUUGGUCUUGCCUGCUCCCAGUAUGGACACAUCUUCCGAAGACCUAAGGGAUUAUUUAUUUCGAUCUCAGACAGAGGUCAUGUUAGAUCAAUU; value = 0.368 ratio

For quick reference, copied from above (sample 1):
Sequence = AACTGTTC; value = -0.0166
Sequence = TCCCGGGA; value = -0.31
Sequence = GTGCTCTA; value = -0.204
Sequence = AGTCACAA; value = 0.0667
Sequence = ACTGCTGC; value = -0.177
Sequence = CTGTGGGA; value = -0.276
Sequence = ACGTGACA; value = -0.0125
Sequence = TAGGAGCA; value = 0.0391
Sequence = GCTAGCCA; value = -0.345
